{"data": "Results of several laboratories", "cell line": "MM1.S", "note": "Several values in a cell are separate wells, animals, samples, runs or records. pEC50, pIC50: −log10 of the molar value."}
{"SMILES": "CC(C)(C)NC(=O)C[C@H](NC(=O)C(=O)c1c[nH]c2ccccc12)C(=O)NCc1cccc(B(O)O)c1", "assay": "cell viability, CellTiter-Glo", "setting": "72 h", "measurement": "EC10", "result": "10 nM"}
{"SMILES": "CCn1cc(-c2cc(Cn3ccoc3=N)cc3c2CCN([C@@H](C)c2cc(OC)ccn2)C3=O)c(C(F)(F)F)n1", "assay": "cell growth, inhibitor", "setting": "120 h", "measurement": "pEC50", "result": 6.20}
{"SMILES": "Cc1cccc(-c2[nH]c(CNc3ccccc3F)nc2-c2ccc3ncnn3c2)n1", "assay": "XTT", "setting": "1 µM", "measurement": "viability", "result": "69% and 85% and 60%"}
{"SMILES": "Cn1cc(-c2cccc(N3CCCC3=O)c2)c2ccccc2c1=O", "assay": "c-MYC protein level, western blot, item: c-MYC", "setting": "6 h", "measurement": "pIC50", "result": "< 6.00"}
{"SMILES": "O=C1CCC(=O)N1Cc1cc2nccc(-c3cc(Cl)cc4c3N([C@@H]3CNC5(CCC5)C3)CCC4)c2s1", "assay": "protein induction, item: p53", "measurement": "EC50", "result": "2.92 ng/mL"}
{"SMILES": "CCOC(=O)/C=C/C(=O)N(CC(C)C)NC(=O)[C@H](CC(C)C)NC(=O)[C@H](CC(C)C)NC(=O)OCc1ccccc1", "assay": "MTS", "setting": "10 µM, 72 h", "measurement": "viability decrease", "result": "50%"}
{"SMILES": "CCn1cc(-c2cc(Cn3ccnc3)cc3c2CCN([C@H](c2cc(OC)ccn2)C2CC2)C3=O)c(C(F)(F)F)n1", "assay": "cell growth, inhibitor", "setting": "120 h", "measurement": "pEC50", "result": 4.75}
{"SMILES": "Nc1cccc2c1C(=O)N(C1CCC(=O)NC1=O)C2=O (stereo not drawn)", "assay": "XTT", "setting": "1.6 µM", "measurement": "viability", "result": "29% and 16% and 31%"}
{"SMILES": "CCOC(=O)/C=C/C(=O)N(CC(C)C)NC(=O)[C@H](Cc1ccccc1)NC(=O)[C@H](CC(C)C)NC(=O)[C@H](CCc1ccccc1)NC(=O)OCc1ccccc1", "assay": "MTS", "setting": "10 µM, 72 h", "measurement": "viability decrease", "result": "40%"}
